Measured values pooled from the literature.
Compare with care: the assays were run in different laboratories. ± marks the error that the study gave.
Genome polyprotein NS2B-NS3 protease: Genome polyprotein, NS2B-NS3 protease (ZIKV, UniProt A0A024B7W1)
UniProt A0A024B7W1, sequence (whole entry, looked up): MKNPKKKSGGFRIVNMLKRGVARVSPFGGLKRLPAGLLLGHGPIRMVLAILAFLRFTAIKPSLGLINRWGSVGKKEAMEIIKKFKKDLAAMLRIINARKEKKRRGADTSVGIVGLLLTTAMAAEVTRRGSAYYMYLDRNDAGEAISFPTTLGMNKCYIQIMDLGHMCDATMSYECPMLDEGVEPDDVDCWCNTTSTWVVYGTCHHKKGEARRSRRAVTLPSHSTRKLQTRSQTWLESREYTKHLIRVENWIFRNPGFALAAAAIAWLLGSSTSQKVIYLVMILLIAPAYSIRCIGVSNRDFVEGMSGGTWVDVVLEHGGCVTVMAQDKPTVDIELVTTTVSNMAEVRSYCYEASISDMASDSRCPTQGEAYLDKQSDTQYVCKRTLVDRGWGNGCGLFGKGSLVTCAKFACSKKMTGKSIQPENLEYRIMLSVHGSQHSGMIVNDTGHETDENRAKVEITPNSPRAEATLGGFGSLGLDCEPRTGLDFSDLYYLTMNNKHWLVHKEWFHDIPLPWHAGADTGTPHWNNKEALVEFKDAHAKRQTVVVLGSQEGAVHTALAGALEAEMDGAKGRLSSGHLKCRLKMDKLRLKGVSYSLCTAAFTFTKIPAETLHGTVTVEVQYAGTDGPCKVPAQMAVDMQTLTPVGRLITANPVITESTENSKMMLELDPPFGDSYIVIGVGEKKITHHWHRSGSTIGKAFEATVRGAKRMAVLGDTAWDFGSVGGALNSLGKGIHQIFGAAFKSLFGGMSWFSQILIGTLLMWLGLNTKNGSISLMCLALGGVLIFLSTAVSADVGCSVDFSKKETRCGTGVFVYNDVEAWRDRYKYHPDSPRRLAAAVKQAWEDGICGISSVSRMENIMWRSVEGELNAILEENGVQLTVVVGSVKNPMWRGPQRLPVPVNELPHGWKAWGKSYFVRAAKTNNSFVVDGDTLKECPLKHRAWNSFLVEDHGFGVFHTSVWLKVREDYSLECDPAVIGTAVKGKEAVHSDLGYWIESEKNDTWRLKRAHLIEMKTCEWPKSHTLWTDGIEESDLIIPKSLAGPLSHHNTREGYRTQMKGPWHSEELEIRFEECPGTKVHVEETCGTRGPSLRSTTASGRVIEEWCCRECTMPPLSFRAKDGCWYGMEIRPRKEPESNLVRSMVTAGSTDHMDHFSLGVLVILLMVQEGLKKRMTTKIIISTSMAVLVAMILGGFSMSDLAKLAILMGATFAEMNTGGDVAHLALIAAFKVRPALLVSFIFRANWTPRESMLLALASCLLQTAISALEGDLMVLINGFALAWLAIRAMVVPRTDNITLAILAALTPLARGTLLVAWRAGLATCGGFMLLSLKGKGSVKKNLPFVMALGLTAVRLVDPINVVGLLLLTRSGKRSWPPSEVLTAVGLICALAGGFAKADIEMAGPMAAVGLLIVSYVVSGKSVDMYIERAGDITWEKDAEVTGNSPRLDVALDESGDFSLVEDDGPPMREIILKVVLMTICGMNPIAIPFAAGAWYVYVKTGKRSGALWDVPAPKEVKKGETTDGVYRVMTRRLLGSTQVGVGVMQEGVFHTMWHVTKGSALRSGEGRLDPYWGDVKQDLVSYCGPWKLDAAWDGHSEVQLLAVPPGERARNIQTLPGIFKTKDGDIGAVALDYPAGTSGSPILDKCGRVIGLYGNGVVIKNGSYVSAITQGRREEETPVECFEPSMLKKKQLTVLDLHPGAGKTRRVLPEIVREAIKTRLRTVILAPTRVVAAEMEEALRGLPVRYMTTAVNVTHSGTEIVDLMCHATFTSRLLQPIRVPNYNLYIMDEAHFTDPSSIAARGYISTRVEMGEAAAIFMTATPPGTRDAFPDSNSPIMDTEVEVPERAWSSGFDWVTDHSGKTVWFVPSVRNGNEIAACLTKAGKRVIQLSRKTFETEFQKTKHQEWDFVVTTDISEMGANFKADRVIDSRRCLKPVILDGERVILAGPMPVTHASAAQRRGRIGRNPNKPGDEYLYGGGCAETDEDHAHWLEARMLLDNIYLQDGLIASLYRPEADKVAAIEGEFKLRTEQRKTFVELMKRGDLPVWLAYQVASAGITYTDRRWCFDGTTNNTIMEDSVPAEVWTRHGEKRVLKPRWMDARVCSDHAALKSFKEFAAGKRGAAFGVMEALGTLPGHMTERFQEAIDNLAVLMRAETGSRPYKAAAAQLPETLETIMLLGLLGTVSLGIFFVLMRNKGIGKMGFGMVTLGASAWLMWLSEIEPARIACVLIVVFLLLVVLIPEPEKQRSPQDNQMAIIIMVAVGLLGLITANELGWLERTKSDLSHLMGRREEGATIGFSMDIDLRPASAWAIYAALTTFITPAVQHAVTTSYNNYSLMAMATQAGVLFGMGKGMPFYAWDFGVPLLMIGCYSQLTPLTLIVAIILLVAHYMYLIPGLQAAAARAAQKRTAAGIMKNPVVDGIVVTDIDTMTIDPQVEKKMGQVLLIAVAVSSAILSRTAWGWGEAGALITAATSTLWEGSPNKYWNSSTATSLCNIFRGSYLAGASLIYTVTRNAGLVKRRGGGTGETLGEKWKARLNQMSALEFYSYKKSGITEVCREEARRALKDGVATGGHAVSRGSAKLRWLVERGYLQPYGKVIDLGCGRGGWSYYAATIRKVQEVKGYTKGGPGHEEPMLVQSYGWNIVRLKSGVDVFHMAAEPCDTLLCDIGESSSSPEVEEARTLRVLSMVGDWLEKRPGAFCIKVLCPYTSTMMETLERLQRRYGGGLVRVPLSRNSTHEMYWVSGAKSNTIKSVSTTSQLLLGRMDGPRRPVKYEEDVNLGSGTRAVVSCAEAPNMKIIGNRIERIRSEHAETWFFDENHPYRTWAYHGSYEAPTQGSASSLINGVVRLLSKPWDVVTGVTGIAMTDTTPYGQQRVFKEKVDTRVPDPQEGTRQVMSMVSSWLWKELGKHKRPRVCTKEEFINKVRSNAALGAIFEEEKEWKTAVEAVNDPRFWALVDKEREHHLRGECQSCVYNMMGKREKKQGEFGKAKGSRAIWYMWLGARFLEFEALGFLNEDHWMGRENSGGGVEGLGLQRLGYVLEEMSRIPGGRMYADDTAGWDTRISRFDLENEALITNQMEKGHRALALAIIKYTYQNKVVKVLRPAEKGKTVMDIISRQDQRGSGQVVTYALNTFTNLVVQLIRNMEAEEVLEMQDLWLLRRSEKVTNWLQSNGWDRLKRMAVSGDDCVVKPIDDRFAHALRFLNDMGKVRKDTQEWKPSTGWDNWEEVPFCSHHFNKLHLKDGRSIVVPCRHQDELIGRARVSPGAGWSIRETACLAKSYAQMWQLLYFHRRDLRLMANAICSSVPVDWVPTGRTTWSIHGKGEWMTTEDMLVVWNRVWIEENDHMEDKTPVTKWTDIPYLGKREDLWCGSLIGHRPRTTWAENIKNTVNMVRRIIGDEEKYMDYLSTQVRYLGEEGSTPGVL
SULT2A1: Sulfotransferase 2A1 (SULT2A1, Homo sapiens, UniProt Q06520)
UniProt Q06520, sequence (whole entry, looked up): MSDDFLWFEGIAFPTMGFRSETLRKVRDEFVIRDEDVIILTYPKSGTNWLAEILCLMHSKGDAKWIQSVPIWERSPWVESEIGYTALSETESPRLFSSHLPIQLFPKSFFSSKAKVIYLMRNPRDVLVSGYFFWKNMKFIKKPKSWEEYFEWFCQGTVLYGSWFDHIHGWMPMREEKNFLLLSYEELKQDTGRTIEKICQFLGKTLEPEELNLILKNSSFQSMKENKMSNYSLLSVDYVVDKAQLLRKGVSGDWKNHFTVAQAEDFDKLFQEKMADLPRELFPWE
ALPL: Alkaline phosphatase, tissue-nonspecific isozyme (ALPL, Homo sapiens, UniProt P05186)
UniProt P05186, sequence (whole entry, looked up): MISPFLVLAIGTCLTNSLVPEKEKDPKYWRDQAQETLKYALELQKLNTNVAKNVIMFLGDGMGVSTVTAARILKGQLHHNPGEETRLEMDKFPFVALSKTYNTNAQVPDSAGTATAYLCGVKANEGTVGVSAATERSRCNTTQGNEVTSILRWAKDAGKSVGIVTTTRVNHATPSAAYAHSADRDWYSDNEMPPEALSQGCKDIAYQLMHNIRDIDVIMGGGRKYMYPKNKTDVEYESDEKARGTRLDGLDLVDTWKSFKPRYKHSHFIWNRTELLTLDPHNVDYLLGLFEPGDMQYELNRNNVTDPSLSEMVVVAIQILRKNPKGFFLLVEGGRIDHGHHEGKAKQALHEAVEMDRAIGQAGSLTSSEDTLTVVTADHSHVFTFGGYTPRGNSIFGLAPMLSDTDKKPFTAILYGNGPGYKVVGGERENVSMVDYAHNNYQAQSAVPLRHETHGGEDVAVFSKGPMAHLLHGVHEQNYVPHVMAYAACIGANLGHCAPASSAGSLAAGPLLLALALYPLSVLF
UniProt Q99685, sequence (whole entry, unmodified, looked up): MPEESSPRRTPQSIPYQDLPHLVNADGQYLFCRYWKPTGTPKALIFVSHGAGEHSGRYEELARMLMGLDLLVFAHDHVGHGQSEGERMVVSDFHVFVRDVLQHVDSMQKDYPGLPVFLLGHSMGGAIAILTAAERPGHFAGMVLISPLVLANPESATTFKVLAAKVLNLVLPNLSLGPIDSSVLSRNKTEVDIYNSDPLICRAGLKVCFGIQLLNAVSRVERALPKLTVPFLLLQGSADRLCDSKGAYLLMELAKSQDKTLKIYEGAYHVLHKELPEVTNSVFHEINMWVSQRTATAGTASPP
UniProt Q9Y6Y9, sequence (whole entry, looked up): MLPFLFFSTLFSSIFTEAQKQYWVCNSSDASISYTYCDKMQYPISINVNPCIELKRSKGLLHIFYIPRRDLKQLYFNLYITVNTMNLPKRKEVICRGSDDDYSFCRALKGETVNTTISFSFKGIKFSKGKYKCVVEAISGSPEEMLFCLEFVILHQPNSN
UniProt Q7NDN8, sequence (whole entry, looked up): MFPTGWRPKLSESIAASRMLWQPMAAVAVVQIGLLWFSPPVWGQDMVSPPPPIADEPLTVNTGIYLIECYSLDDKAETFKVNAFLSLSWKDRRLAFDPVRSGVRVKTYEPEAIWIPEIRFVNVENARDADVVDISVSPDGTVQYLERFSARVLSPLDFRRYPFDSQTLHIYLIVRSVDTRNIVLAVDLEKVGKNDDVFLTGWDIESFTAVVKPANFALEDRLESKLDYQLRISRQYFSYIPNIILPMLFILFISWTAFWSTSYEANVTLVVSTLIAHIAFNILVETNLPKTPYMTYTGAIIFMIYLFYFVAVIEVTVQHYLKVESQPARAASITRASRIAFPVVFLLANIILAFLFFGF

CC[C@H](C)[C@H](NC(=O)[C@H](CCCCN)NC(=O)[C@H](CCC(=O)O)NC(=O)[C@H](CCCCN)NC(=O)[C@H](CO)NC(=O)[C@H](CCCCN)NC(=O)[C@H](CCCNC(=N)N)NC(=O)[C@H](Cc1ccccc1)NC(=O)[C@H](Cc1ccccc1)NC(=O)[C@H](CC(=O)O)NC(=O)CNC(=O)[C@H](CC(C)C)NC(=O)[C@@H](N)CC(C)C)C(=O)NCC(=O)N[C@@H](CCCCN)C(=O)N[C@@H](CCC(=O)O)C(=O)N[C@@H](Cc1ccccc1)C(=O)N[C@@H](CCCCN)C(=O)N[C@@H](CCCNC(=N)N)C(=O)N[C@H](C(=O)N[C@H](C(=O)N[C@@H](CCC(N)=O)C(=O)N[C@@H](CCCNC(=N)N)C(=O)N[C@H](C(=O)N[C@@H](CCCCN)C(=O)N[C@@H](CC(=O)O)C(=O)N[C@@H](Cc1ccccc1)C(=O)N[C@@H](CC(C)C)C(=O)N[C@@H](CCCNC(=N)N)C(=O)N[C@@H](CC(N)=O)C(=O)N[C@@H](CC(C)C)C(=O)N[C@H](C(=O)N1CCC[C@H]1C(=O)N[C@@H](CCCNC(=N)N)C(=O)N[C@H](C(=O)N[C@@H](CCC(=O)O)C(=O)N[C@@H](CO)C(=O)O)[C@@H](C)O)C(C)C)[C@@H](C)CC)C(C)C)[C@@H](C)CC — IC50 (Toll-like receptor 4/MD-2 (TLR4/LY96, Homo sapiens, UniProt O00206+Q9Y6Y9); reporter gene, antagonist; HEK-Blue hTLR4; added: LPS): 23.1 µM
O=C(O[C@@H]1Cc2c(O)cc(O)cc2O[C@@H]1c1cc(=O)c(O)c2c(O)c(O)cc([C@H]3Oc4cc(O)cc(O)c4C[C@H]3O)c2c1)c1cc(O)c(O)c(O)c1 — IC50 (nuoF (Escherichia coli, UniProt P31979); deamino-NADH oxidase activity; 1100, membrane vesicles; added: 75 µM deamino-NADH): 15 µM
Nc1ccccc1C(=O)O — IC50 (mushroom tyrosinase; monophenolase activity, inhibitor; pH 6.8, 20 °C, added: p-coumaric acid substrate): 5.15 µM
CC(C)C[C@H](NC(=O)[C@H](C)NC(=O)[C@H](Cc1c[nH]c2ccccc12)NC(=O)[C@H](Cc1ccc(O)cc1)NC(=O)[C@H](C)NC(=O)[C@H](CC(C)C)NC(=O)[C@H](C)N)C(=O)O — IC50 (Transcriptional regulator ComR (Streptococcus mutans serotype c, UniProt Q8DWI6); Streptococcus mutans): 22 µM
O=[N+]([O-])c1ccc(OP(=O)(O)Oc2ccc([N+](=O)[O-])cc2)cc1 — IC50 (Liver carboxylesterase 1 (CES1, Homo sapiens, UniProt P23141); enzyme activity, inhibitor; human liver microsomes; pH 6.5, 37 °C, added: D-luciferin methyl ester): 0.24 ± 0.02 µM
[Br-].[Na+] — IC50 (Beta-lactamase OXA-48 (OXA-48, Klebsiella pneumoniae, UniProt Q6XEC0, del214-217/S212D); enzyme activity, inhibitor; pH 7.2, with preincubation): 29000 µM
NCc1ccc(-c2ncc(OCC3CCNCC3)nc2-n2cccn2)cc1 — IC50 (Genome polyprotein NS2B-NS3 protease; inhibitor; Zika virus): > 50 µM
CCN1C(=Cc2ccc3ccccc3[n+]2CC)C=Cc2ccccc21 — IC50 (Solute carrier family 22 member 2 (SLC22A2, Homo sapiens, UniProt O15244); [3H]MPP+ uptake, inhibitor; HEK293 stably expressing SLC22A2; 10 min, room temperature, added: 10 nM [3H]MPP+): ~10 µM
COc1cc2c(cc1O)CC[n+]1cc3c(OC)c(OC)ccc3c(C)c1-2 — IC50 (D(1A) dopamine receptor (DRD1, Homo sapiens, UniProt P21728); calcium mobilization, antagonist, FLIPR; HEK293T with Galpha15; 10 min preincubation, D1 receptor, added: dopamine at EC50): 2.16 µM
O=C1Nc2ccc3ncsc3c2/C1=C/Nc1ccc(S(=O)(=O)Nc2ccccn2)cc1 — IC50 (Glycogen synthase kinase 3, short isoform (Leishmania infantum, UniProt A4HXQ3); enzyme activity, inhibitor; 90 min, 30 °C, added: ATP 2 µM): 0.63 µM
CO[C@H]1C[C@H](O[C@H]2CC[C@@]3(C)[C@H](CC[C@@H]4[C@@H]3CC[C@]3(C)[C@@H](C5=CC(=O)OC5)[C@@H](OC(C)=O)C[C@]43O)C2)O[C@@H](C)[C@@H]1O — IC50 (Na+/K+-ATPase (pig cerebral cortex); enzyme activity, inhibitor, phosphate release colorimetric; 30 min, 37 °C, added: ATP-Mg 3 mM): 2.61 ± 0.175 µM
CCCCCc1cc(O)cc(O)c1C(=O)Oc1ccc(C(=O)O)c(O)c1 — IC50 (DNA topoisomerase 1 (topA, Escherichia coli, UniProt P06612); enzyme activity, inhibitor): 250 to 500 µM
O=C1c2ccccc2SC(c2ccccc2)N1CCCN1CCCCC1 (stereo not drawn) — IC50 (Acetylcholinesterase (Ache, Rattus norvegicus, UniProt P37136); inhibitor, Ellman method; rat cerebral cortex homogenate; added: acetylthiocholine): 8.5 µM
Cc1ccc2nc(-c3c(O)c4ccccc4oc3=O)ccc2c1 — IC50 (mushroom tyrosinase; enzyme activity, inhibitor; pH 6.5, 25 °C, added: L-tyrosine 1 mM): 18.3 ± 0.5 µM
NCc1ccc(-c2ncc(OCC3CCNCC3)nc2-c2ccc(CN)c(F)c2)cc1 — IC50 (Genome polyprotein NS2B-NS3 protease; inhibitor; Zika virus): > 50 µM
COc1ccc(-n2cc(COc3ccnc4cc(Cl)ccc34)nn2)cc1 — IC50 (FP2A (Plasmodium falciparum, UniProt Q8I6U4); enzyme activity, inhibitor, fluorescence; pH 5.5, with preincubation): 25.4 µM
O=S(=O)(O)Oc1cc(Cl)c(-c2cc(Cl)ccc2Cl)cc1Cl — IC50 (SULT2A1; DHEA sulfation, inhibitor; pH 7.4, 37 °C, added: DHEA 1.0 µM): 30 ± 11 µM
COc1cc(NC(=O)C(=O)[C@H](CC(C)C)NC(=O)[C@H](CC(C)C)NC(=O)[C@H](CC(C)C)NC(=O)c2ccc(-c3ccc(C(C)=O)cc3)o2)cc(OC)c1 — IC50 (Proteasome component C5/PSMB5, chymotrypsin-like site (Homo sapiens, UniProt P20618+P28074); enzyme activity in cells, inhibitor): 0.0317 µM
CCOP(=O)(OCC)Oc1nc(Cl)c(Cl)cc1Cl — IC50 (rat liver carboxylesterase; enzyme activity, inhibitor; rat, postnatal day 1, liver homogenate; added: p-nitrophenyl valerate): 2e-05 µM
CC(C)C[C@@H]1NC(=O)[C@H]([C@@H](C)O)NC(=O)[C@H](CCCCN)NC(=O)[C@@H]2CCCN2C(=O)[C@H](Cc2c[nH]c3ccccc23)NC(=O)[C@@H](NC(=O)[C@H](CCCCN)NC(=O)[C@H](Cc2ccc(O)cc2)NC(=O)[C@@H](N)Cc2c[nH]cn2)CSSC[C@@H](C(=O)N[C@@H](Cc2c[nH]c3ccccc23)C(=O)N[C@@H](CC(N)=O)C(=O)N[C@@H](Cc2c[nH]cn2)C(=O)O)NC(=O)[C@H](CCCCN)NC(=O)[C@H](Cc2ccccc2)NC1=O — IC50 (Activin receptor type-2B (ACVR2B, Homo sapiens, UniProt Q13705); reporter gene, antagonist, refers to: Smad2/3; HEK293T; 4 h, added: activin A 0.33 ng/mL): > 100 µM
O=C1OC2(c3cc(Br)c(O)cc3Oc3cc(O)c(Br)cc32)c2ccccc21 — IC50 (Dual specificity protein phosphatase 5 (Homo sapiens, UniProt Q16690); phosphatase activity; 60 min, 1 mM DTT, added: pNPP): > 300 µM
Cc1cc(-c2cc(Br)c(-c3cc(C)c(O)c(C)c3)[se]2)cc(C)c1O — IC50 (Estrogen receptor (ESR1, Homo sapiens, UniProt P03372); antagonist; HEK293T; added: estradiol 10 nM): 1.58 µM
CCCCC/C=C\C/C=C\C/C=C\C/C=C\CCCCN1C(=O)C=CC1=O — IC50 (Monoglyceride lipase (MGLL, Homo sapiens, UniProt Q99685, C208A/C242A); enzyme activity, inhibitor; added: AHMMCE substrate): 8.5 µM
Cc1c(P(=S)(c2ccccc2)c2ccccc2)n2ccccc2[n+]1C/C=C/c1ccc(Cl)cc1 — IC50 (Neuropeptide S receptor (NPSR1, Homo sapiens, UniProt Q6W5P4); calcium signal, antagonist): 0.0071 µM
CN1C(=O)[C@]23SS[C@@]1(C)C(=O)N2[C@H]1Nc2ccccc2[C@@]1([C@@]12c4ccccc4N[C@@H]1N1C(=O)[C@@]4(C)SS[C@]1(C(=O)N4C)[C@H]2O)[C@@H]3O — IC50 (Histone-lysine N-methyltransferase EHMT2 (EHMT2, Homo sapiens, UniProt Q96KQ7); enzyme activity, inhibitor, radiometric): 0.538 µM
O=P(O)(O)Oc1ccccc1OP(=O)(O)O — IC50 (Inositol polyphosphate-5-phosphatase A (Homo sapiens, UniProt Q14642); enzyme activity, inhibitor; added: 1 µM [3H]Ins(1,4,5)P3 substrate): > 200 µM
Oc1ccc(Cl)cc1-c1ccc(Cl)c(Cl)c1 — IC50 (SULT2A1; enzyme activity, inhibitor): 15.5 µM
O=C1C2CC=CCC2C(=O)N1c1n[nH]c(Cc2ccccc2)n1 (stereo not drawn) — IC50 (ALPL; enzyme activity, inhibitor, luminescence; added: 0.1 M DEA, 50 µM CDP-star): 0.073 ± 0.003 µM
O=S(=O)(O)Oc1ccc(-c2ccc(Cl)cc2)cc1 — IC50 (Sulfotransferase 1E1 (SULT1E1, Homo sapiens, UniProt P49888); enzyme activity, inhibitor, radiometric; pH 7.4): > 10 µM
Cc1cccc(C)c1OCC(=O)N[C@@H](Cc1ccccc1)[C@@H](O)C[C@H](Cc1ccccc1)NC(=O)[C@H](C(C)C)N1CCCNC1=O — IC50 (Solute carrier organic anion transporter family member 1B3 (SLCO1B3, Homo sapiens, UniProt Q9NPD5); transport, inhibitor; 10 (unit not given), pre-incubation, added: cholecystokinin): 4.2 ± 0.6 µM
FC(F)OC(Cl)C(F)(F)F (stereo not drawn) — IC50 (Proton-gated ion channel (glvI, Gloeobacter violaceus, UniProt Q7NDN8); pH 5.5): 60 µM
CN(Cc1ccc(S(=O)(=O)N2CCOCC2)cc1)c1ccc2c3c(cccc13)C(=N)N2 — IC50 (SHMT (Plasmodium falciparum, UniProt Q8I566); enzyme activity, radiometric; 20 min, 37 °C, added: serine 0.2 mM, THF 1 mM): 150 µM
NCCCCOc1ccc(Cl)cc1C(=O)Nc1ccc([N+](=O)[O-])cc1Cl — IC50 (Genome polyprotein, protease (dengue virus type 2, UniProt P29990); enzyme activity, inhibitor, FRET): 34 µM
CNC(=O)OCC[N+](C)(C)C — IC50 (Neuronal acetylcholine receptor subunit alpha-4/beta-2 (Mus musculus, UniProt O70174+Q9ERK7); receptor desensitisation; mouse thalamic synaptosomes; high ACh-sensitivity component): 0.0786 ± 0.0178 µM
NCc1ccc(-c2ncc(OCC3CCNCC3)nc2-c2ccc(-n3cc(CO)nn3)cc2)cc1 — IC50 (Genome polyprotein NS2B-NS3 protease; inhibitor; Zika virus): > 10 µM
O=C(O)c1cc(-c2ccccc2Cl)n[nH]1 — IC50 (ALPL; enzyme activity, inhibitor, absorbance): > 100 µM

Repeated from above:
O=C(O)c1cc(-c2ccccc2Cl)n[nH]1 — IC50 (ALPL; enzyme activity, inhibitor, absorbance): > 100 µM
NCCCCOc1ccc(Cl)cc1C(=O)Nc1ccc([N+](=O)[O-])cc1Cl — IC50 (Genome polyprotein, protease (dengue virus type 2, UniProt P29990); enzyme activity, inhibitor, FRET): 34 µM
CN1C(=O)[C@]23SS[C@@]1(C)C(=O)N2[C@H]1Nc2ccccc2[C@@]1([C@@]12c4ccccc4N[C@@H]1N1C(=O)[C@@]4(C)SS[C@]1(C(=O)N4C)[C@H]2O)[C@@H]3O — IC50 (Histone-lysine N-methyltransferase EHMT2 (EHMT2, Homo sapiens, UniProt Q96KQ7); enzyme activity, inhibitor, radiometric): 0.538 µM
Nc1ccccc1C(=O)O — IC50 (mushroom tyrosinase; monophenolase activity, inhibitor; pH 6.8, 20 °C, added: p-coumaric acid substrate): 5.15 µM
